Experimental data gathered from unrelated publications.
Lines come from different studies, so protocols differ.
Target: Serine/threonine-protein kinase 38 (STK38, Homo sapiens, UniProt Q15208)
Chain of UniProt Q15208 (whole entry, looked up): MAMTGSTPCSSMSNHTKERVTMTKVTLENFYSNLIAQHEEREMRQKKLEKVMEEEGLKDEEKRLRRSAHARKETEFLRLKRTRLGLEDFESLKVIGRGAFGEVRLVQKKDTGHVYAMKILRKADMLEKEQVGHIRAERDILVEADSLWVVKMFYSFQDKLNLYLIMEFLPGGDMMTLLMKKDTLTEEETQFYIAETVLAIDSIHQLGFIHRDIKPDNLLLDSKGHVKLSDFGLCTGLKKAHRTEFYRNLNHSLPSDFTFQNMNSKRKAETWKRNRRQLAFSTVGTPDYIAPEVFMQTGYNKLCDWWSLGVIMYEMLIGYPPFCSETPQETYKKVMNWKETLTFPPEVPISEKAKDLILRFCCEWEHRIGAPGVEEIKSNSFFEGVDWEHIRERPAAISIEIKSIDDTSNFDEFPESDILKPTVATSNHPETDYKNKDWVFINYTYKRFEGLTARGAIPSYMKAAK

Compound | test | system | setting | scale | measurement | value
CN1CCN(Cc2ccc(-c3ccc(CO[C@H]4CCC[C@@H]4NC(=O)c4cc(-c5cnn(C)c5)cnc4N)cc3)cc2)CC1 | enzyme activity, inhibitor | – | 0.1 µM | – | inhibition | 12%
CNC(=O)C1CCN(c2cc(C)c(F)cc2NC(=O)c2ccc(-c3cc(O)ccc3C)c(C)c2)CC1 | binding, competition with immobilised ligand | – | 1 µM | – | remaining binding | 100%
COc1cc(Nc2nccc(-c3cnn4nc(OC)ccc34)n2)cc(C(F)(F)F)c1 | binding, competition with immobilised ligand | – | 1 µM | – | remaining binding | 82%
Nc1ncc2c(n1)-c1c([nH]c3ccc(C4=CCOCC4)cc13)CCC2 | binding, competition with immobilised ligand | – | 1 µM | – | remaining binding | 100%
O=C(Cc1ccc(OCc2ccccc2)cc1)NC1(C(=O)O)CCN(C(=O)c2ccc(-c3cccc(Cl)c3)cc2)CC1 | enzyme activity, inhibitor | – | 10 µM | – | activity vs control | 107%
Cc1ccc(C(=O)Nc2ccc(CN3CCN(C)CC3)c(C(F)(F)F)c2)cc1C#Cc1cnc2cccnn12 | target engagement, NanoBRET | human cells | – | – | upper asymptote | 11000
NC(=O)[C@@H](O)C[C@H]1CCc2sc3ncnc(O[C@H]4CC[C@H](N5CCOCC5)CC4)c3c21 | enzyme activity, inhibitor | – | 10 µM | – | inhibition | 9%
C=CC(=O)N1CCCC(n2c(=O)c3ncccc3n(Cc3ccc(Oc4ccccc4)cc3)c2=O)C1 (centres unmarked) | cell-free assay, competition with immobilised ligand | – | 1 µM | – | remaining binding | 84%
Cc1cnc2nc1Nc1cccc(c1)COC/C=C/COCc1cc(ccc1OCCN1CCOCC1)N2 | binding, competition with immobilised ligand | – | 0.1 µM | – | remaining binding | 98%
C=CC(=O)N1CCc2ccc(-n3c(=O)ccc4cnc5ccc(-c6cnn(C)c6)cc5c43)cc21 | KINOMEscan | – | 1 µM | relative to: DMSO control | remaining binding | 67%
CCN1CCN(Cc2ccc(C(=O)Nc3ccc(C)c(NCc4cnc5[nH]ccc5c4OC)c3)cc2C(F)(F)F)CC1 | binding, competition with immobilised ligand | – | 1 µM | – | remaining binding | 48%

Some of these lines once more:
Compound | test | system | setting | scale | measurement | value
Cc1ccc(C(=O)Nc2ccc(CN3CCN(C)CC3)c(C(F)(F)F)c2)cc1C#Cc1cnc2cccnn12 | target engagement, NanoBRET | human cells | – | – | upper asymptote | 11000
C=CC(=O)N1CCc2ccc(-n3c(=O)ccc4cnc5ccc(-c6cnn(C)c6)cc5c43)cc21 | KINOMEscan | – | 1 µM | relative to: DMSO control | remaining binding | 67%
